Measured values of several laboratories.
Every numbered part comes from another study and shows a few of its results, in no order.

Series 1 — method: RNA Bind-n-Seq; molecule type: RNA; sample: in vitro; tested at: 200 nM; setting: whole 134-nt RNA, ends assumed; added: 150 mM KCl; reference: input library; reading: higher = stronger binding
Target: Fragile X messenger ribonucleoprotein 1, C-terminal low-complexity region (Fmr1, Mus musculus, UniProt P35922)
Sequence | log2 enrichment
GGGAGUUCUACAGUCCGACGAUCCUGUGCUACACAUCGUAUGUACCGAAUCGGGGCCCCCCCGGCCCCCCCGGGCCCCCCCGGGGAAAGUAUUAUGUUACGCCGUUCGGAUCUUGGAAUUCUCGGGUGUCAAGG | -1.01
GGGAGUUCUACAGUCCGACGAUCUAACUUUAGAGGAGGAUCUGAUGGAUAUGGCAGUGGACGUGGAUUUGGGGAGGGCUAUAAUGGGUAUGGAGGAGGACCUGGAGGUGGCAAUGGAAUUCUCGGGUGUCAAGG | 0.478
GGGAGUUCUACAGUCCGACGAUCCACAGACAACACGCACCCACACAGACACAGAGGGAAGGGGUUGGGAUGGGGACAGGGUGCACAGUAGGGCGGGGUAGGACCCCAGCCCCUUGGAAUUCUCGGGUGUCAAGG | 1.26
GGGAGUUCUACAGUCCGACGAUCACCAUGCAGGUGGGCAUCUUUGGGAAGUGGGGCAAGGGGGGGAUAGAGAGGGGGGUAACACUUUGGGAACAGGUGGUCCCAGGUCGUUUCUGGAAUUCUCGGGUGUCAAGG | 0.453
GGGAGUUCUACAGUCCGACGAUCCCUGUGCUACACAUCGUAUGUACCGAAUCGGGGUUUUUGGGGUUUUUUUGGGGAAAGGGGAAAGUAUUAUGUUACGCCGUUCGGAUCUGCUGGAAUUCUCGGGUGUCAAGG | 0.561
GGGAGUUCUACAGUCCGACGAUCACCAUGCAGGUGGGCAAAUUUGGGAAGUGGGGCAAGGGGGGGAUAGGGAGGGGGGUAACACUUUGGGAACAGGUGGUCCCAGGUCGUUUCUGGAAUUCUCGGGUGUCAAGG | 0.478
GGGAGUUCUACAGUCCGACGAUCGAAAUCCACAGGAAAGUGAUGUCACAAAACUUCACCAACUGCCACACCAAGAUUCGCCAUGUUGAUGCUCAUGCCACGCUAAAUGAUGGUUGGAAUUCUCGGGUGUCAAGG | 0.192
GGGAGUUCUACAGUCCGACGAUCUAACUUUAGAGGAGGAUCUGAUGGAUAUGGCAGUGGACGUGGAUUUGGGGAUGGCUAUAAUGGGUAUGGAGGAGCACCUGGAGGUGGCAAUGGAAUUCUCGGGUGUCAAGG | 0.0842
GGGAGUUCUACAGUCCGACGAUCUGCGCCAACCUAGGCUUUCUUCUUCCUCUCCUCUUUAUAGGCGGAGUCGAUCUCCCAAAAGGAGAAGGUAGGCCUUCAGUCAUUUGUGAUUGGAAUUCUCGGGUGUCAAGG | -0.124
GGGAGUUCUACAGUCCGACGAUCAAGUCCUGUGCUACACAUCGUAUGUACCGAAUCGGGAAAAAAAGGGAAAGGGAGGGAAAGUAUUAUGUUACGCCGUUCGGAUCUGCACUUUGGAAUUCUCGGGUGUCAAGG | 0.598

Series 2 — method: RNA Bind-n-Seq; molecule type: RNA; sample: in vitro; tested at: not given; reference: input RNA pool; reading: higher = stronger binding
Target: RING finger protein unkempt homolog, zinc fingers 1-6, GST-SBP tag (UNK, Homo sapiens, UniProt Q9C0B0, residues 30-357)
Sequence of UniProt Q9C0B0 (30-357, looked up): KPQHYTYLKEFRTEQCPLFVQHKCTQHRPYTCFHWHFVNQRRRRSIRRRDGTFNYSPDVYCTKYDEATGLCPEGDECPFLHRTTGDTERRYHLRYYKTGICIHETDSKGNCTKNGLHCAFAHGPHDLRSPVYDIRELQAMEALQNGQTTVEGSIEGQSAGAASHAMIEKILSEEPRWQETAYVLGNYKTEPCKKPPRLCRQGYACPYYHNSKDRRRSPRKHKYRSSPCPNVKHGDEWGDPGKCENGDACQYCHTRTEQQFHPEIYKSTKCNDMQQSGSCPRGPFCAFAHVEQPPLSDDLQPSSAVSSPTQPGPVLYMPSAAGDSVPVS
Setting: RNA with constant flanks, human-mouse chimeric sites, ends assumed
Sequence | bound/input enrichment [ratio]
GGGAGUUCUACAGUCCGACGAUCACCAUUUCUGAAUACACAGGUUUUGUGGUAGUUCACUUACGGUAUUAAAUUAUUAUUCUGCUUAGCUUAUAAUAAGGAUAAUUGCAUUUAAAGAGGUUACUGAAUGUUACUCUGAAACUUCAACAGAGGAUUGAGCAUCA | 0.418
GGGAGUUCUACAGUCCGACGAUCACCUCCCCCUCCCGCCUGCUUUUUGAACCGCUUUUUGGAAAGUUUUUGGCGUUUCUUUUCCUUCCCCAUACAAAGUGAUUACAGUUUCCCCCGCAAGGGUCUAUCGAAGGGCUUGACGGACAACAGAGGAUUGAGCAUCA | 0.521
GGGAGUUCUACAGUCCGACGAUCACCUCCCCCUCCCGCCUGCUUUUUGAACCGCUUUUUGGAAAGUUUUUGGCGUUUCUUUUCCUUCCCCAUACAAAGUGAUUACAGUUUAGAGUCUAUGGGUCUAUCGAAGGGCUUGACGGACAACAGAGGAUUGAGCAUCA | 0.766
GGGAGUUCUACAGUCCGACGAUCGCACUUGGCAAUGUAAUCAGCGCCUUGGGGGACAAGAGCAAGAGAGCCACCCAUGUCCCUUACAGAGACUCUAAGCUGACAAGACUCUUGCAGGAUUCCCUUGGGGGUAACAGCCAAACCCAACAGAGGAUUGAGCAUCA | 0.119
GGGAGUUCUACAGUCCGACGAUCCGCUGGCCCAAGCUGAUGGACUCUGAUGGCCUCCAUCUCUCAGGCACGUGUGCCUUCUCUUAGUCCCUUCUGGGUUGAUGUUAUGAAUCUCAGUACUGUGGUUUGAAAGCAGUUAUGUUGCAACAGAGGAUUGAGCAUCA | 0.731
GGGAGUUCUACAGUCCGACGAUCCUCAGAGAUGUGGCAUAUCAGUAUGUGAAAAAGGGGGCUCGAAUUUAUUUGGAAGGGAAAGUGGACUAUGGCGAGUACAUGGAUAAAAACAAUGUGAGGCGGCAAGCAACAACAAUCAUACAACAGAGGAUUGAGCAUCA | 0.364
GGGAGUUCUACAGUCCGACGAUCGGUGGGGUGGUCAUUGCCGUUUGAGCUGCUGAUUUUCAUGAGUCGCCUUCAAAACUCUCGUGUAGGGUUGACAAUGUGGGGGGGUGGGAAAUCUAGCUUAUUCUUUUAUUUUCAAGUCCACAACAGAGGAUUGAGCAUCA | 5.67
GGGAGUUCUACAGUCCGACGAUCAAAGUGGACUAUGGUGAGUACAUGGAUAAAAACAAUGUGAGGCGGCAAGCAACAACAAUCAUAGCUGAUAACAUUAUAUUUCUGAGUGACCAGACGAAAGAAAAGGCAUAGAACGGAUGACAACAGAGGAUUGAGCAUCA | 1.67
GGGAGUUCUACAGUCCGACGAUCGCGAACAGCCAUUAGGAAAUGCUGGUAAUUUCAGUCACUUGCUGAUGACUUCUGAUGUCCCAGCAAAUGUUGGCAUUGUUGACUGCUGAGAAGAUACUUCUGAGGACCCACGUCUAAGGUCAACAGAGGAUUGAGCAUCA | 0.176
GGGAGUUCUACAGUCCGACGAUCGCUCUUGGGAAUGUAAUCAGCGCCUUGGGGGACAAGAGCAAGAGAGCCACCCAUGUCCCUUACAGAGAUUCCAAGCUGACAAGACUCCUACAGGAUUCCCUUGGGGGUAACAGCCAAACCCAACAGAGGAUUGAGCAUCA | 0.128
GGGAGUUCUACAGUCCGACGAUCUAAGUCCUGUGCCAGCAAUUUAUCCCAAAAGUUUUAAAUUCUGGACCAAUAGUGUUUGUUUCCUGAUUAUUGUAUCCAAUACUUUGCGUACUAUGUGACUCACUCUUACUGAUAAUAAAACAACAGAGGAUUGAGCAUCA | 2.09

Series 3 — method: universal PBM; molecule type: double-stranded DNA, one strand shown; sample: in vitro; tested at: 600 nM; reading: higher = stronger binding
Target: Sal-like protein 4, full length isoform A (SALL4, Homo sapiens, UniProt Q9UJQ4, residues 1-1053)
Sequence of UniProt Q9UJQ4 (whole entry, looked up): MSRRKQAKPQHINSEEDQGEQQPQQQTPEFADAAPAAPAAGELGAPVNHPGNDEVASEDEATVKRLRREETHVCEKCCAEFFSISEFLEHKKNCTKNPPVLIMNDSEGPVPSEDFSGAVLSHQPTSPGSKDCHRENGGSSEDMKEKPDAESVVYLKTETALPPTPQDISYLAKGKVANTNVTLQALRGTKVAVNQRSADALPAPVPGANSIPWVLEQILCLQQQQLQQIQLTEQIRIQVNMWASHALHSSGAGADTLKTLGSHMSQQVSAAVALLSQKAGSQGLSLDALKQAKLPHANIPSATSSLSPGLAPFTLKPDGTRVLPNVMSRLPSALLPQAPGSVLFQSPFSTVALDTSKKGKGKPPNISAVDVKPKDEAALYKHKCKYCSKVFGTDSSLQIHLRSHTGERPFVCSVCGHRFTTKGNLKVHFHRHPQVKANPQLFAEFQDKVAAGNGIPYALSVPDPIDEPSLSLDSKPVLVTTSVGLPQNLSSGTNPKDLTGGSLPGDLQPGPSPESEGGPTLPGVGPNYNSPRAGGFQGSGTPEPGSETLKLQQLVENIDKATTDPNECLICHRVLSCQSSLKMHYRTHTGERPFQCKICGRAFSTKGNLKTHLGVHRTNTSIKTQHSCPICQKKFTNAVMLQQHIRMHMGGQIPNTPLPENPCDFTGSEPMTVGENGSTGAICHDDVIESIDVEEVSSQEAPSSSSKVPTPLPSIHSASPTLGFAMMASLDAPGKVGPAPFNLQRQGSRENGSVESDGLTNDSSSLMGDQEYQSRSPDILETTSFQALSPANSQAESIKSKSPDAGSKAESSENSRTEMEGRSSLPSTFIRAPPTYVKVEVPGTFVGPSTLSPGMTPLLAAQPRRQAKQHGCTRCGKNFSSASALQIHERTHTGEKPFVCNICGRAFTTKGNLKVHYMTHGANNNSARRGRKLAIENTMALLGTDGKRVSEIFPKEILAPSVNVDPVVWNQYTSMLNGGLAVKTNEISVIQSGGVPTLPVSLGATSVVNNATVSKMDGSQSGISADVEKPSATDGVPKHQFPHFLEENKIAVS
Setting: 8-mer, flanks averaged, mean of replicates
Sequence | E-score
CACTGCGC | -0.245
CATGTGCC | -0.0286
CGGCGGAA | -0.187
GTGTCTAA | 0.169
GAAGTGCA | 0.0256
GAGCACAA | -0.0373
CAATGTGG | -0.000475
ACACGCCG | -0.197
ATCTTGAA | 0.23
ACCCCACA | -0.125
CGAGGCCG | -0.341
CATTGCGA | 0.109
ATTACGAA | 0.3
TATCGCGA | 0.0713
AGAAGGCG | -0.227
AACGTCAC | -0.0165
AGCATAAA | 0.33
AAGTAATC | 0.164
GCACGCGC | -0.202
AACCAATG | 0.128
GATGTACC | 0.0493
ATCCACTC | -0.115

Series 4 — method: protein binding microarray; molecule type: double-stranded DNA, one strand shown; sample: in vitro; tested at: not given; reference: not given; reading: higher = stronger binding
Target: Histone acetyltransferase KAT6A, winged helix 2, GST fusion (KAT6A, Homo sapiens, UniProt Q92794, residues 85-181)
Setting: 8-mer, flanks averaged, mean of 2 arrays, mostly near background
Construct (chain): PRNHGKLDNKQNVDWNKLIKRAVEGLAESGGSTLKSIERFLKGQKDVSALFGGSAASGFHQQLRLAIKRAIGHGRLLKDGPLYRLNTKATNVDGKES
Sequence | E-score
GAAGAAGC | -0.0229
CTATTATA | 0.0752
GGGCGTTA | 0.103
ACACAAAA | 0.194
ATAAAGCG | 0.0868
AGTCTACA | -0.202
CTTGTCAA | 0.12
CGCTTATC | -0.0125
GTTCTGCA | 0.0343
TAGGGGAA | -0.163
CGCAAAGA | 0.0435
CCATTCTC | -0.0869
GAATAGTA | 0.138
TCAATAAA | 0.0551
GGAGCTTA | 0.0225
CGGGGTTC | 0.0107
ACTGGCTA | -0.0268
AACGGGGC | 0.00423
CAGCTAGG | -0.045
ACGGCTGG | -0.00915
GTTTCCTA | -0.0318
AGGCCCGG | -0.115
CAATAAAG | 0.0515
ACCAGCAT | -0.0859
TGCATACA | -0.0558

Repeated from above (series 1):
Sequence | log2 enrichment
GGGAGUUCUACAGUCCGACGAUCACCAUGCAGGUGGGCAAAUUUGGGAAGUGGGGCAAGGGGGGGAUAGGGAGGGGGGUAACACUUUGGGAACAGGUGGUCCCAGGUCGUUUCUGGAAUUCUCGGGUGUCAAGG | 0.478
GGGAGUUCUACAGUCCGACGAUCUAACUUUAGAGGAGGAUCUGAUGGAUAUGGCAGUGGACGUGGAUUUGGGGAUGGCUAUAAUGGGUAUGGAGGAGCACCUGGAGGUGGCAAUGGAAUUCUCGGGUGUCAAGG | 0.0842
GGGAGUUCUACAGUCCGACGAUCCACAGACAACACGCACCCACACAGACACAGAGGGAAGGGGUUGGGAUGGGGACAGGGUGCACAGUAGGGCGGGGUAGGACCCCAGCCCCUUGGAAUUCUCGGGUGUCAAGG | 1.26
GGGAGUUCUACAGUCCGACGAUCACCAUGCAGGUGGGCAUCUUUGGGAAGUGGGGCAAGGGGGGGAUAGAGAGGGGGGUAACACUUUGGGAACAGGUGGUCCCAGGUCGUUUCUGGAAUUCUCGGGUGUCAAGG | 0.453
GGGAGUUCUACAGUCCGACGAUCGAAAUCCACAGGAAAGUGAUGUCACAAAACUUCACCAACUGCCACACCAAGAUUCGCCAUGUUGAUGCUCAUGCCACGCUAAAUGAUGGUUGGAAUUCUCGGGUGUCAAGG | 0.192
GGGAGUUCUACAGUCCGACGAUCUGCGCCAACCUAGGCUUUCUUCUUCCUCUCCUCUUUAUAGGCGGAGUCGAUCUCCCAAAAGGAGAAGGUAGGCCUUCAGUCAUUUGUGAUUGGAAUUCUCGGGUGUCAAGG | -0.124
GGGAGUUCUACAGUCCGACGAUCAAGUCCUGUGCUACACAUCGUAUGUACCGAAUCGGGAAAAAAAGGGAAAGGGAGGGAAAGUAUUAUGUUACGCCGUUCGGAUCUGCACUUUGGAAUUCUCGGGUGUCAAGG | 0.598
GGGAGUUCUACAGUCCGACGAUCCCUGUGCUACACAUCGUAUGUACCGAAUCGGGGUUUUUGGGGUUUUUUUGGGGAAAGGGGAAAGUAUUAUGUUACGCCGUUCGGAUCUGCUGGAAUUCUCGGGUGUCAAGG | 0.561
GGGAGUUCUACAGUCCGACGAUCCUGUGCUACACAUCGUAUGUACCGAAUCGGGGCCCCCCCGGCCCCCCCGGGCCCCCCCGGGGAAAGUAUUAUGUUACGCCGUUCGGAUCUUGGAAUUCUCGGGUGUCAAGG | -1.01
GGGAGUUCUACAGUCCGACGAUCUAACUUUAGAGGAGGAUCUGAUGGAUAUGGCAGUGGACGUGGAUUUGGGGAGGGCUAUAAUGGGUAUGGAGGAGGACCUGGAGGUGGCAAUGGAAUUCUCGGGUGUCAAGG | 0.478
